Measured values from different studies.
Each line is one published result; not all experiments were run side by side. “And” joins repeats or separate records; there may be more than shown. ± gives the spread as reported.
SUMO-activating enzyme subunit 2 with SAE1: SUMO-activating enzyme subunit 2, with SAE1 (Homo sapiens, UniProt Q9UBT2)
KCNJ13 M125R: Inward rectifier potassium channel 13 (KCNJ13, Homo sapiens, UniProt O60928, M125R)
Genome polyprotein NS2B-NS3 protease: Genome polyprotein, NS2B-NS3 protease (ZIKV, UniProt A0A024B7W1)
cyp121: Mycocyclosin synthase (cyp121, Mycobacterium tuberculosis, UniProt P9WPP7)
Grin1/Grin2b ifenprodil binding site: Glutamate NMDA receptor; Grin1/Grin2b, ifenprodil binding site (Grin1/Grin2b, Rattus norvegicus, UniProt P35439+Q00960)
Squalene synthase ERG9: Squalene synthase ERG9 (Saccharomyces cerevisiae, UniProt P29704)
CDPK1: Calmodulin-domain protein kinase 1 (CDPK1, Toxoplasma gondii, UniProt Q9BJF5)

Amino acid sequences for entries named in this document (tags omitted). Residues count along the entry.
UniProt O60928, whole entry M125R: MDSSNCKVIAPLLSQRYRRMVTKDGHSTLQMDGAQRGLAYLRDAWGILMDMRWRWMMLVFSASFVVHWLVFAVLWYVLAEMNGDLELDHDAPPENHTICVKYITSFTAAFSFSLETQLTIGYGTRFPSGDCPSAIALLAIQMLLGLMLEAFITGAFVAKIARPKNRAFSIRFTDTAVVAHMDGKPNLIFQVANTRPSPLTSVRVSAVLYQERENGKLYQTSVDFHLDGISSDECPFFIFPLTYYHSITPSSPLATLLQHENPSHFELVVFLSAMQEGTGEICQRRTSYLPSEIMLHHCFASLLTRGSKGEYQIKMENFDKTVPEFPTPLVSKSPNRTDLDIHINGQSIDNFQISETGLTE
UniProt P9WPP7, whole entry: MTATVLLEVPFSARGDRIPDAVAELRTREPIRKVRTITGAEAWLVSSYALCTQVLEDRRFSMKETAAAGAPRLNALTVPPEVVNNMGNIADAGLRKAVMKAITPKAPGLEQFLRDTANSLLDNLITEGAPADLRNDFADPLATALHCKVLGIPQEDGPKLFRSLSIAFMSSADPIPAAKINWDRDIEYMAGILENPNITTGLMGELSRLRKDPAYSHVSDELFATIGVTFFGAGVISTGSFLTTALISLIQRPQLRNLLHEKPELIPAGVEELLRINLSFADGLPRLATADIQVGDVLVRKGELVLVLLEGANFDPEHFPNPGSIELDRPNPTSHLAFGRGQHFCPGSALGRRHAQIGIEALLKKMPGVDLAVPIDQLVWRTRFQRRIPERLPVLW
UniProt Q8E0N2, whole entry: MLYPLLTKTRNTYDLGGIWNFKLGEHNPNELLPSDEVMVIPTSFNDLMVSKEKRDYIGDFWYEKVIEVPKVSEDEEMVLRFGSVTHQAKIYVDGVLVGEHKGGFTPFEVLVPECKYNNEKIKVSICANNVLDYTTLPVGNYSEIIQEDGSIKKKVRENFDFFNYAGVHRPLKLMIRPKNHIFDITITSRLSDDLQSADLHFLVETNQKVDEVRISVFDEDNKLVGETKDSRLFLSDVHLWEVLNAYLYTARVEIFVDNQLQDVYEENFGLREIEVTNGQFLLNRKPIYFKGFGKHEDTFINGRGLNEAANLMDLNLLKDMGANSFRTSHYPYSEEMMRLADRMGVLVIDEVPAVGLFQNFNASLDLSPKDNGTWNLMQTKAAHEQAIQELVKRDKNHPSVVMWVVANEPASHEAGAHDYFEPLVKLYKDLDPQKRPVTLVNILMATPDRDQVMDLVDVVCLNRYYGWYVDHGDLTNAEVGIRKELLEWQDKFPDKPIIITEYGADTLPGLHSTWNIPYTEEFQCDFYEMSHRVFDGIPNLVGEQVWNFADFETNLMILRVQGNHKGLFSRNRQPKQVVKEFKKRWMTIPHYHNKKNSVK
UniProt Q96RJ0, whole entry: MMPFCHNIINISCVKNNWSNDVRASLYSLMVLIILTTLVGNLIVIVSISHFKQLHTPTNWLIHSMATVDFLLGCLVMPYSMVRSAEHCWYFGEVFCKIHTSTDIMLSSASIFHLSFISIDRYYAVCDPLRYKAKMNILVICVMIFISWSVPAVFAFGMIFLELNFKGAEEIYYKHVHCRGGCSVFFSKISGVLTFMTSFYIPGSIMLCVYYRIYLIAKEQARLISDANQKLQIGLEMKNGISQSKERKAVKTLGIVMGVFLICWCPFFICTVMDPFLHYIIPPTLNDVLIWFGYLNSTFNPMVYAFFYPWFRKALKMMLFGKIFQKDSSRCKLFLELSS
UniProt Q2FV99, 60-206 limits assumed: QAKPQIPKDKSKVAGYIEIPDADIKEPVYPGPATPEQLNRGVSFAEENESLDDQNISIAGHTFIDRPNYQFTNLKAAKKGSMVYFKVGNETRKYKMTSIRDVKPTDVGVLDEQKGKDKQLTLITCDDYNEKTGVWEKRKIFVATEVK
UniProt C7C422, 29-270 limits assumed: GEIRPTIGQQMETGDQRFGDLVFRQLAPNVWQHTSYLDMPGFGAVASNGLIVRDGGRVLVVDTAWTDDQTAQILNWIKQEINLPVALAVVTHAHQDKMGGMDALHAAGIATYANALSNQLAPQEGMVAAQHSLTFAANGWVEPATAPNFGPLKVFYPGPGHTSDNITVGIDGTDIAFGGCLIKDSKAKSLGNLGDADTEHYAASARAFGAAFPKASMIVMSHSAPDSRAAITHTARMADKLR
UniProt Q38C42, 1-471: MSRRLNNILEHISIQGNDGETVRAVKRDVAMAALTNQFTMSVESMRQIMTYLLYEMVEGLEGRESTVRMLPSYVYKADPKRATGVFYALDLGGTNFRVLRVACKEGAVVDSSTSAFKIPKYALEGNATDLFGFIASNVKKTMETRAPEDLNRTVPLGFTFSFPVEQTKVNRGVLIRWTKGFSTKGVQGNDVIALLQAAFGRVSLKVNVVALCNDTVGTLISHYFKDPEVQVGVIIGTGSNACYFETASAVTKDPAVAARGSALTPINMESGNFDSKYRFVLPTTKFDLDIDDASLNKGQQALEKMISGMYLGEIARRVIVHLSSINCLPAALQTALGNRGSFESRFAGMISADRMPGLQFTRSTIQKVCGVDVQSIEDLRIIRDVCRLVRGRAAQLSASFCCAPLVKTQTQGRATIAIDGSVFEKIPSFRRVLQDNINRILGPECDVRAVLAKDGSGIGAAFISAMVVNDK
UniProt P09884, whole entry: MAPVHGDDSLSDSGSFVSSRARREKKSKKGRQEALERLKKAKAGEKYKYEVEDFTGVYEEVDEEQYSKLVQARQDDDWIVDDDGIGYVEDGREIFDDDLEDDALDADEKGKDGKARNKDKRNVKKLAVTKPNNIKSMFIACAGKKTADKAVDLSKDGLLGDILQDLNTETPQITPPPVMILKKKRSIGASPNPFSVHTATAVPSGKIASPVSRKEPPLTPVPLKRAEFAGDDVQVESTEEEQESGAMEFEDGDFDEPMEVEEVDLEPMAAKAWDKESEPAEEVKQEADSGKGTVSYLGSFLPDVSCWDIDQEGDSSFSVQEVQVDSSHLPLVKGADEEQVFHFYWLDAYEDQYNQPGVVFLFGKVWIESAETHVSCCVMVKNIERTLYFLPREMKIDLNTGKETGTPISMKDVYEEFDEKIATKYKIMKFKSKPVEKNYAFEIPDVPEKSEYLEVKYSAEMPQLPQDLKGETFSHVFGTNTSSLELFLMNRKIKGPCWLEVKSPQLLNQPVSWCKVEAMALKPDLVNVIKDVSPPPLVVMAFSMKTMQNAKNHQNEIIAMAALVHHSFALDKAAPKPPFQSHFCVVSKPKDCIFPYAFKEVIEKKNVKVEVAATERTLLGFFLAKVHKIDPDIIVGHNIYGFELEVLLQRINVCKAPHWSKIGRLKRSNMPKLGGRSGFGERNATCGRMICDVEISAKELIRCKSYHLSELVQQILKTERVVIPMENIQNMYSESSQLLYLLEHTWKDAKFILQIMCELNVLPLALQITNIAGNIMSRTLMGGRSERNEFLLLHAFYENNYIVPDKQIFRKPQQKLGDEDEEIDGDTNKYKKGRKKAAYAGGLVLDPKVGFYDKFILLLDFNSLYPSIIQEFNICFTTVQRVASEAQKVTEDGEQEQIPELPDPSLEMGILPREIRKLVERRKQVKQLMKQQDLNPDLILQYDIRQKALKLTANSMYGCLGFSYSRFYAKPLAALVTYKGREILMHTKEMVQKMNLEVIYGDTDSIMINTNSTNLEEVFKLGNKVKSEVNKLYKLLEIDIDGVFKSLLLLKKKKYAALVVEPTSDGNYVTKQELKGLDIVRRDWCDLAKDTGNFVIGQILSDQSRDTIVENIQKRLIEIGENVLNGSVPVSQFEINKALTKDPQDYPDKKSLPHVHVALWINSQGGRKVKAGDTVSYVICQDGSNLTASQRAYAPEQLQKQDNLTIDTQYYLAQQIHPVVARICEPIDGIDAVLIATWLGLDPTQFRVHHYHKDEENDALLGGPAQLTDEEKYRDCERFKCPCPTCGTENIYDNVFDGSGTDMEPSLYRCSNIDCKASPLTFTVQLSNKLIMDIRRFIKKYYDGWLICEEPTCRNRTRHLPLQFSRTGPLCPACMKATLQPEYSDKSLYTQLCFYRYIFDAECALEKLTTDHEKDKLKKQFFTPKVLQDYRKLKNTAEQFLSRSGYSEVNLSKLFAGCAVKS
UniProt P35354, 18-604 limits assumed: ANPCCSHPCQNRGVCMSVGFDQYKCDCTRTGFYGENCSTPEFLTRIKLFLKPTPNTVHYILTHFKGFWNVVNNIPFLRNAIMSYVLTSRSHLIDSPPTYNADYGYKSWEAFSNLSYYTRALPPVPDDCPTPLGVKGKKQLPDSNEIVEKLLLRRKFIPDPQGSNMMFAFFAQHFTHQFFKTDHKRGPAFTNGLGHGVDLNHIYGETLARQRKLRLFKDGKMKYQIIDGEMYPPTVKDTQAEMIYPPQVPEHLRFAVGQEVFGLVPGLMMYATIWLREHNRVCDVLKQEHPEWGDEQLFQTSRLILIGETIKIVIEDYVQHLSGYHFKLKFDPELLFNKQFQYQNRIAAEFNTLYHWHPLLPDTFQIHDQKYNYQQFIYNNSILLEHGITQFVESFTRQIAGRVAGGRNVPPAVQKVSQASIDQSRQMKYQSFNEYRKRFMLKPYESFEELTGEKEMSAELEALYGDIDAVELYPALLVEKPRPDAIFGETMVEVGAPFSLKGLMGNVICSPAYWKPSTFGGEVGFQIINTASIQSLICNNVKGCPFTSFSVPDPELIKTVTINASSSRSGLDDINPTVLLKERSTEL
UniProt P18654, 399-740 limits assumed: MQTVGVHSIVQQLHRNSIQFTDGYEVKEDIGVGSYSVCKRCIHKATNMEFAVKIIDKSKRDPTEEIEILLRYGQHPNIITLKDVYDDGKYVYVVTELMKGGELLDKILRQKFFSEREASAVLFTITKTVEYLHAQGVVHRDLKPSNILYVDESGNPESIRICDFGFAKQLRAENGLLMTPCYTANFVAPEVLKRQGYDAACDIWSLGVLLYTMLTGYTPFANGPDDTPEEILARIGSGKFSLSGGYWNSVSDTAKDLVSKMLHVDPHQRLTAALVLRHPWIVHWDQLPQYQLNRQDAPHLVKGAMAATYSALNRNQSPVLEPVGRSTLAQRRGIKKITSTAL
UniProt P14867, whole entry, looked up: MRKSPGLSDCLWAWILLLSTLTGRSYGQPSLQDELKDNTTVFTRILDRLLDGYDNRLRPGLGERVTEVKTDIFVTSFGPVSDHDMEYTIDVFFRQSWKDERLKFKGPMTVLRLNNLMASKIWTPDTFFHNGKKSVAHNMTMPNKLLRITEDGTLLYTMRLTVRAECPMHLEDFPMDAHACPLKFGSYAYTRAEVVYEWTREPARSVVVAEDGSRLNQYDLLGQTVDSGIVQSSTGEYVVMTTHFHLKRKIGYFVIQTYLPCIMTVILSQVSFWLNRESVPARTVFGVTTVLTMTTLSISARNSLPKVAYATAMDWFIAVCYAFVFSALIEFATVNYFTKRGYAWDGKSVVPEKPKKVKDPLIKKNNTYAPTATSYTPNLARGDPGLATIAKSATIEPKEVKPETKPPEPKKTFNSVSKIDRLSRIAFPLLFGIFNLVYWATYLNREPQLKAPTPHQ

CN(C)c1ccc2c(n1)sc1c(N3CCNCC3)ncnc12
IC50 (Beta-glucuronidase (Streptococcus agalactiae serotype V, UniProt Q8E0N2); enzyme activity, inhibitor): 2.9 ± 0.6 µM

C=CC[C@H](Nc1ccccc1)C12C=CC(O1)C(C(=O)OC)=C2C(=O)OC (stereo partly shown)
IC50 (SUMO-activating enzyme subunit 2 with SAE1; SUMOylation, inhibitor, AlphaScreen; together with: SUMO1-RanGAP1 conjugation): 5.77 µM

O=C(CCCOc1cc(=O)oc2ccccc12)N1CCN(Cc2ccc(F)cc2)CC1
IC50 (Cholinesterase (BCHE, Equus caballus, UniProt P81908); enzyme activity, inhibitor, Ellman): 1.59 ± 0.02 µM

COC(=O)C1=C(C(=O)OC)C2([C@@H](Cc3ccccc3)Nc3ccc(C)cc3)C=CC1O2 (stereo partly shown)
IC50 (SUMO-activating enzyme subunit 2 with SAE1; SUMOylation, inhibitor, AlphaScreen; together with: SUMO1-RanGAP1 conjugation): 2.75 µM

O=C(Nc1ccccc1)NC1CCN(Cc2cc(Cl)c3cccnc3c2O)CC1
IC50 (KCNJ13 M125R; ion current, inhibitor, thallium flux; T-REx-HEK293): 15.8 µM

COC(=O)C1=C(C(=O)OC)C2([C@@H](Cc3ccc(OC)cc3)Nc3ccccc3)C=CC1O2 (stereo partly shown)
IC50 (SUMO-activating enzyme subunit 2 with SAE1; SUMOylation, inhibitor, AlphaScreen; together with: SUMO1-RanGAP1 conjugation): 0.53 µM

COc1ccc2c(c1)c1c(C)c3cnccc3c(C)c1n2CCN1CCOCC1
IC50 (Toll-like receptor 3 (Homo sapiens, UniProt O15455); reporter gene, SEAP reporter; HEK-Blue hTLR3; together with: poly(I:C)): 0.12 ± 0.01 µM

c1cnc2sc3c(N4CCNCC4)ncnc3c2c1
IC50 (Beta-glucuronidase (Streptococcus agalactiae serotype V, UniProt Q8E0N2); enzyme activity, inhibitor): 13 ± 3 µM

CO[P@@]1(=O)OC[C@H]2COC(=O)C2=C(C)O1 (relative stereo)
IC50 (ACHE (Homo sapiens, UniProt P22303); enzyme activity, inhibitor, modified Ellman; racemate): ~0.04 µM and 0.04 µM

O=C(Nc1ccccc1OS(=O)(=O)c1ccc(OC(F)(F)F)cc1)c1cnccn1
IC50 (P2X purinoceptor 7 (P2RX7, Homo sapiens, UniProt Q99572); calcium mobilisation, antagonist; MCF7 transfected with target; together with: Bz-ATP 100 µM): 0.457 ± 0.036 µM

NCc1ccc(-c2ncc(OCC3CCNCC3)nc2-c2ccc(-c3cn[nH]c3)cc2)cc1
IC50 (Genome polyprotein NS2B-NS3 protease; enzyme activity, inhibitor; Gly4-Ser-Gly4-linked NS2B-NS3 protease): 0.71 ± 0.07 µM

CC(C)[C@H](NC(=O)N[C@@H](CCCCN)C(=O)N[C@@H](CNC(=O)CCCCCCCCCCS)C(=O)NCCCNC(C[C@H]1O[C@@H](n2ccc(=O)[nH]c2=O)[C@H](O)[C@@H]1O)C(=O)O)C(=O)O (stereo partly shown)
IC50 (mraY (Staphylococcus aureus, UniProt Q2FZ93); enzyme activity, inhibitor; crude membranes; together with: dansylated Park's nucleotide): 0.068 ± 0.004 µM

CNc1nc(N2CCNCC2)c2sc3nc(-c4ccccc4)ccc3c2n1
IC50 (Beta-glucuronidase (Streptococcus agalactiae serotype V, UniProt Q8E0N2); enzyme activity, inhibitor): 0.72 ± 0.08 µM

CCC(c1ccc(-c2ccc(SC)cc2)cc1)n1ccnc1 (stereo not shown)
Kd (cyp121; binding): 3 ± 0.74 µM

Cc1ccc(CN2C(=O)C(O)=C(C(=O)c3cccs3)C2c2ccc(C)cc2)cc1 (racemic)
IC50 (USP2 (Homo sapiens, UniProt O75604); enzyme activity, inhibitor, MALDI-TOF; 35 min preincubation, 30 °C): 5.17 µM

CN(CCCCCN(C)c1ccc(C(=N)N)cc1)c1ccc(C(=N)N)cc1
IC50 (Grin1/Grin2b ifenprodil binding site; pH 7.4): 16.6 µM

N#Cc1c(C(F)(F)F)cc(-c2ccncc2)nc1SCC(=O)Nc1ncco1
IC50 (TAAR1 (Homo sapiens, UniProt Q96RJ0)): > 10 µM

CC(C)=CCC/C(C)=C/CCCCN1[C@@H](COP(=O)(O)CP(=O)(O)O)[C@]1(C)CC/C=C(\C)CCC=C(C)C (relative stereo)
IC50 (Squalene synthase ERG9; enzyme activity, inhibitor; pH 7.2, together with: 1.5 mM pyrophosphate, 100 µM [3H]FPP): 13.8 ± 3.8 µM

N=C(N)c1ccc(OCCSCCOc2ccc(C(=N)N)cc2)cc1
IC50 (Grin1/Grin2b ifenprodil binding site; pH 7.4): 19.2 µM

NC(=O)COc1c(SSc2cnn(-c3ccccc3)c(=O)c2OCC(N)=O)cnn(-c2ccccc2)c1=O
IC50 (srtA (Staphylococcus aureus, UniProt Q2FV99); inhibitor): 22 ± 2 µM

CNc1ccc2c(n1)sc1c(N3CCNCC3)nc(NC)nc12
IC50 (Beta-glucuronidase (Lachnospira eligens, UniProt C4Z6Z2); enzyme activity, inhibitor): 1.1 ± 0.2 µM

COc1cc(C)cc(Sc2cc(C(=O)N3Cc4ccccc4C3)ccc2O)c1
IC50 (HSP90AA1 (Homo sapiens, UniProt P07900); binding, fluorescence polarization; together with: FITC-geldanamycin tracer): 0.9 ± 0.02 µM

O=C(NO)c1c(F)ccc(F)c1F
IC50 (Histone deacetylase 6, CD2 catalytic domain (hdac6, Danio rerio, UniProt F8W4B7); enzyme activity, inhibitor, fluorogenic; 30 min, together with: Ac-RHK(Ac)K(Ac)-AMC): > 20 µM

O=C(COC(=O)CNC(=O)C1CCCCC1)Nc1ccccc1Cl
IC50 (Cruzipain (Trypanosoma cruzi, UniProt P25779); enzyme activity, inhibitor): 0.52 µM

O=C(O)CC1(n2cnnn2)CCCCC1
IC50 (blaNDM-1 (Klebsiella pneumoniae, UniProt C7C422); 10 min preincubation, together with: FC5 fluorogenic substrate): > 1000 µM

CC(C)(C)c1ccc(C(=O)Nc2cc(Cl)c(F)cc2C(=O)O)cc1
IC50 (Phosphotransferase (Trypanosoma brucei, UniProt Q38C42); hexokinase activity, inhibitor): 2.79 ± 0.1 µM

O=c1ccn([C@@H]2O[C@H](COP(=O)(O)OP(=O)(O)OP(=O)(O)O)[C@@H](O)[C@]2(F)Br)c(=O)[nH]1
IC50 (POLA1 (Homo sapiens, UniProt P09884); polymerase activity, inhibitor; 37 °C): > 100 µM

COc1ccc2c(c1)c(CC(=O)NCCCCNC(=O)CCC(=O)OC1c3cc4c(cc3C(c3cc(OC)c(OC)c(OC)c3)C3C(=O)OCC13)OCO4)c(C)n2C(=O)c1ccc(Cl)cc1 (stereo not shown)
IC50 (PTGS2 (Homo sapiens, UniProt P35354); enzyme activity, inhibitor; 1483 HNSCC cells): 0.2 µM

C=CCOc1ccc2cc(-c3nn(C(C)C)c4ncnc(N)c34)ccc2c1
IC50 (Calcium-dependent protein kinase 4 (Plasmodium falciparum, UniProt Q8IBS5); kinase activity, inhibitor, Kinase-Glo luminescence): < 0.02 µM

O=C(NC1CCCCC1)Oc1ccc(O)c(-c2ccccc2)c1
IC50 (Faah (Rattus norvegicus, UniProt P97612); enzyme activity, inhibitor; rat brain membranes; no pre-incubation, together with: 10 µM [3H]-anandamide): 0.03 ± 0.0058 µM

Cc1cccc(CN2CCN(C(c3ccccc3)c3ccc(Cl)cc3)CC2)c1 (stereo not shown)
IC50 (RNMT (Homo sapiens, UniProt O43148); enzyme activity, inhibitor): 8.8 ± 0.6 µM

CCC(c1ccc(-c2ccc(F)cc2F)cc1F)n1ccnc1 (stereo not shown)
Kd (cyp121; binding): 4.8 ± 0.84 µM

C=CC(=O)Nc1cc(NC(=O)CCl)cc(C(=O)n2c3ccccc3c3ccccc32)c1
IC50 (ALK tyrosine kinase receptor/Echinoderm microtubule-associated protein-like 4 (Homo sapiens, UniProt Q9HC35+Q9UM73); ALK autophosphorylation, immunoprecipitation, immunoblot; BaF3; 3 h): 2.3 µM

O=C(NC1CCN(Cc2cc(Cl)c3cccnc3c2O)CC1)c1ccccc1
IC50 (KCNJ13 M125R; ion current, inhibitor, thallium flux; T-REx-HEK293): 8.3 µM

NC(=O)c1cc(Sc2ccc(Oc3ccccc3)cc2)nc2ccccc12
IC50 (CDPK1; kinase activity, inhibitor, ELISA; together with: syntide-2 substrate, ATP 25 µM): 1.3 µM

Cc1ccc(N=Nc2c(O)ccc3cc(S(=O)(=O)O)ccc23)cc1
IC50 (Bcl-2-related protein A1 (Mus musculus, UniProt Q07440, C113S/P104K); binding, fluorescence polarization; together with: FITC-Noxa peptide): 120 µM

COC(=O)C1=C(C(=O)OC)C2([C@H](Cc3ccccc3)Nc3ccccc3)C=CC1O2 (stereo partly shown)
IC50 (SUMO-activating enzyme subunit 2 with SAE1; SUMOylation, inhibitor, AlphaScreen; together with: SUMO1-RanGAP1 conjugation): 4.87 µM

CC1=C([C@H](O)CC(=O)O[C@H](C)[C@@H](C)[C@H](O)CC(=O)[C@@H](C)[C@@H](O)CCCCCOC(=O)CC(C)C)C(=O)OC1=O
IC50 (PPP2CA (Homo sapiens, UniProt P67775); enzyme activity, inhibitor, malachite green; 30 °C, together with: phosphopeptide KRpTIRR 40 µM): 0.28 ± 0.028 µM

CC(Oc1ccccc1)C(=O)Nc1ccc(Cl)cc1 (stereo not shown)
IC50 (guaB (Escherichia coli K-12, UniProt P0ADG7, L444Y/S250A); enzyme activity, inhibitor): 1.8 µM

Cc1ccc(-c2c(C=C(C#N)c3ccc(C#N)cc3)n(CCCO)c3ncnc(N)c23)cc1
IC50 (Ribosomal protein S6 kinase alpha-3, C-terminal kinase domain (Rps6ka3, Mus musculus, UniProt P18654); kinase activity, inhibitor; C-terminal kinase domain): 0.77 µM

O=C(NC1CCN(Cc2cc(Cl)c3cccnc3c2O)CC1)c1ccc(Cl)cc1
IC50 (KCNJ13 M125R; ion current, inhibitor, thallium flux; T-REx-HEK293): 3.9 µM

CC(C)=CCC/C(C)=C/CCCCN1[C@H](COP(=O)(O)OP(=O)(O)O)[C@@]1(C)CC/C=C(\C)CCC=C(C)C (single isomer, unassigned)
IC50 (Squalene synthase ERG9; enzyme activity, inhibitor; pH 7.2, tetrabutylammonium salt, together with: 100 µM [3H]FPP, no added pyrophosphate): 18.7 ± 4.9 µM

C/C=C(\NC(=O)[C@@H](NC(=O)[C@@H](NC(=O)[C@H](C)NC(=O)C/C(C)=C/Cl)[C@@H](C)CC)[C@@H](C)O)C(=O)N[C@H]1CC[C@@H](O)N([C@@H](Cc2ccccc2)C(=O)N(C)[C@@H](Cc2ccc(O)cc2)C(=O)N[C@H](C(=O)O)C(C)C)C1=O
IC50 (CELA1 (Sus scrofa, UniProt P00772); enzyme activity, inhibitor; 30 min, pH 7.4, 22 °C, together with: MeOSuc-Ala-Ala-Pro-Val-AMC): 3.08 µM

CNc1nc(N2CCNCC2)c2sc3ncccc3c2n1
IC50 (Beta-glucuronidase (uidA, Escherichia coli, UniProt P05804); enzyme activity, inhibitor): 0.009 ± 0.002 µM

O=c1[nH]c2sc3c(c2c(=O)n1O)CCCC3
IC50 (Gag-Pol polyprotein, reverse transcriptase RNase H (gag-pol, Human immunodeficiency virus 1, UniProt P03366); RNase H activity, inhibitor; together with: HTS-1 RNA/DNA substrate): 0.1 ± 0.02 µM

O=C(NC1CCN(Cc2cc(Cl)c3cccnc3c2O)CC1)c1cccc(F)c1
IC50 (KCNJ13 M125R; ion current, inhibitor, thallium flux; T-REx-HEK293): 5.7 µM

O=C1NC(=O)C2(Cc3ccccc32)N1 (racemic)
IC50 (GABA-A receptor alpha-1/beta-3, with gamma-2 subunit (GABRA1/GABRB3, Homo sapiens, UniProt P14867+P28472); alpha1beta3gamma2 receptor): 5.1 µM

NC(=O)c1cc(Sc2ccc(N)cc2)nc2ccccc12
IC50 (CDPK1; kinase activity, inhibitor, ELISA; together with: syntide-2 substrate, ATP 25 µM): > 20 µM

NCc1ccc(-c2ncc(OCC3CCNCC3)nc2-c2ccc(-c3ccoc3)cc2)cc1
IC50 (Genome polyprotein NS2B-NS3 protease; enzyme activity, inhibitor; binary NS2B-NS3 protease): 0.22 µM

For quick reference, copied from above:
CC(C)=CCC/C(C)=C/CCCCN1[C@H](COP(=O)(O)OP(=O)(O)O)[C@@]1(C)CC/C=C(\C)CCC=C(C)C (single isomer, unassigned)
IC50 (Squalene synthase ERG9; enzyme activity, inhibitor; pH 7.2, tetrabutylammonium salt, together with: 100 µM [3H]FPP, no added pyrophosphate): 18.7 ± 4.9 µM

C/C=C(\NC(=O)[C@@H](NC(=O)[C@@H](NC(=O)[C@H](C)NC(=O)C/C(C)=C/Cl)[C@@H](C)CC)[C@@H](C)O)C(=O)N[C@H]1CC[C@@H](O)N([C@@H](Cc2ccccc2)C(=O)N(C)[C@@H](Cc2ccc(O)cc2)C(=O)N[C@H](C(=O)O)C(C)C)C1=O
IC50 (CELA1 (Sus scrofa, UniProt P00772); enzyme activity, inhibitor; 30 min, pH 7.4, 22 °C, together with: MeOSuc-Ala-Ala-Pro-Val-AMC): 3.08 µM

CNc1nc(N2CCNCC2)c2sc3ncccc3c2n1
IC50 (Beta-glucuronidase (uidA, Escherichia coli, UniProt P05804); enzyme activity, inhibitor): 0.009 ± 0.002 µM

O=c1[nH]c2sc3c(c2c(=O)n1O)CCCC3
IC50 (Gag-Pol polyprotein, reverse transcriptase RNase H (gag-pol, Human immunodeficiency virus 1, UniProt P03366); RNase H activity, inhibitor; together with: HTS-1 RNA/DNA substrate): 0.1 ± 0.02 µM
